Measurements of several laboratories.
Numbered parts are unrelated; each lists some results of a single study. Substitutions count along the parent as printed.

Sample 1
Target: RNA binding protein fox-1 homolog 2, RRM domain, GST-SBP tag (RBFOX2, Homo sapiens, UniProt O43251-10, residues 100-194)
Method: RNA Bind-n-Seq
Form: RNA
Medium: in vitro
Concentration: 365 nM
Notes: natural RNA segment, single round, ends assumed
Relative to: no-protein control
Reading: higher = stronger binding
Constant ends, left off below: GGGAGUUCUACAGUCCGACGAUC … UGGAAUUCUCGGGUGCCAA
Residues (chain): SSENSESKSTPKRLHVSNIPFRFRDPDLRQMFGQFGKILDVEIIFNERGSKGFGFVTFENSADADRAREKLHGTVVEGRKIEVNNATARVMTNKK
Oligonucleotide	RBNS enrichment (R)
GCAGGAUGAAUUUUCUGCAGCUGUUUCAAAGUUGGGGUCUGUUCUUGAAUCCUCUAUUAAUUACUGUGUGUGAGCCAGAGGGAGCUGUGGUAAGGGUUGGGCCCCCAGCC	1.22
GCUGCAUAUGUUGUAUUUUUUAAGUUGAAAUUAAUGAAGUUAACAUUUUUAUUGUAAUUUUAGCCUUAGCGUGUGGGGGUUUAUCCCUUUUUGUUAGCUGUGUACAGAAU	1.03
AAAAAAAUUGCAAGUGAUUAGAUUCAAUUAUUGAUUUAUUUACUUCUACUUUGUAUCCAUGACUUCUCCGAAUCAAACCACGGUAUAUGUUGUGACAAUAUCUAUGGCCA	0.327
AGGCUCUGCGUGUGGUCCGUAUGGAAAGCCUGGUAGCCCUGCGAGUUAAGUACUGCUUCCAUUCAUUGUUUACGCUGGAAUUUUUCUCCCCAUGGAAUGUAAGUAAAACU	2
UUUGAGAUGCAGAAUUCAUCUUUUUUGGAAUAUUUCCAUGGUGGAGCUCAGUCAUCACACUUCAAGAGCUGAGAACACUCUGAGCCCGGCAAGAAUACAGGACUUCUUAG	0.273
UCUGCUCGAAGCUGUCACUUCCUUCUAAGGAUUUACAGAGGCCUAGGGCCCUAACCUUCAGGGGUGGGGACACAAUUAAAGGAAGGGAAUGUAUAAAGAAAUUAUUCUUC	0.433
UGGAUUAGGGAUAGGCACCUCUGAAAUCUCCACCCUGAUGAUUGGAAUGAAACGGAGUGAACAUGAGCCCAGCUGAGAGAGGAGCAGGAAUGUGUGAAAAACAGCUGCUC	0.955
GCGCUCGCUUUCAUGGGACCAGACGUGAUGCUGGAAGGUGGGCGUCGUCACGGUUAAAGAGAAAUGGGCUCGUCCCGAGGGUAGUGCCUGAUCAAUGAGGGCGGGGCCUG	0.587
AGCCUAGCCAUCCACCCCACACGGAGCUGCAUCCAACAUGCAGACAUGCGCCACCAAGCAGAUCCCAGCAAGGGUGCCCCAGUCACAUCCUUGGCCAUGCAGUUAGCACC	0.397
UAAUCAAGAGGGGACAUUUUUCAUUAAGAGUUCAGUAAGACUUCUCCCACAUUAUUUACUAGAAAAUAUCAUCUUAGAAGAAACCCCAUGAAGGAAAAGAAUAGGGAAAA	0.586
UAUAUAUGUAGAAAUGAAUAAAUAUAUAUUUAAGUACAGUUUUCAUGAGGAAGUUUUAAAAGACCAUGUUCCUAAGCUUCCAAGAAGGUUUUGGAUACUAGAAGUAUUAA	0.957
UAUGCCCCGAAUUCCUAGUGCAGUUCUCAUUCUCCGCAUGCCCUCAGCUGUGGUCAGGUGACUUCCUGUCCCCUGGCAGCUCUGCUGAGUCCCUGUGUUUGAGCCUCCAG	0.538

Sample 2
Target: CCNB2, cyclin fold, Cln2 fusion (human)
Method: yeast growth competition, sequencing
Medium: yeast
Notes: weak parent motif
Relative to: not given
Reading: higher = stronger binding
Parent: GMNC docking peptide (human); KNAKRNLSSEFAN; partner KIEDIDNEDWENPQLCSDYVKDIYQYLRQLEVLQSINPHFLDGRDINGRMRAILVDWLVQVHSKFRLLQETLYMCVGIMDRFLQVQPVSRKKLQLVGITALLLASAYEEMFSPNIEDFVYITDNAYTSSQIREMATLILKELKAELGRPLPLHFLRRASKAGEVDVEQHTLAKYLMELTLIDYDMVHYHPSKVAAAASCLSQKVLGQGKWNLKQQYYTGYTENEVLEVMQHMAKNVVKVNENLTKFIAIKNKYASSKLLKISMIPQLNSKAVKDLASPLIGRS
Substitution	normalised enrichment score
KGAKRNLSSEFAN [N2G]	0.504
KNAKRNLSSEFMN [A12M]	0.304
KNAKRNLSSEDAN [F11D]	0.146
KNAKRNNSSEFAN [L7N]	0.544
KNAKRNPSSEFAN [L7P]	0.404
KNGKRNLSSEFAN [A3G]	0.446
KNAKRNLSIEFAN [S9I]	0.44
KNAKQNLSSEFAN [R5Q]	0.367
KNAKRCLSSEFAN [N6C]	0.18
KNARRNLSSEFAN [K4R]	0.929
KTAKRNLSSEFAN [N2T]	0.917
KNAKDNLSSEFAN [R5D]	-0.0726
KNAKRNLSSEFPN [A12P]	0.291
KNAKLNLSSEFAN [R5L]	0.0577

Sample 3
Target: Histone acetyltransferase KAT6A, both winged helices, GST fusion (KAT6A, Homo sapiens, UniProt Q92794, residues 1-181)
Method: protein binding microarray
Form: double-stranded DNA, one strand shown
Medium: in vitro
Concentration: not given
Notes: 8-mer, flanks averaged, mean of 2 arrays, mostly near background
Relative to: not given
Reading: higher = stronger binding
Residues (chain): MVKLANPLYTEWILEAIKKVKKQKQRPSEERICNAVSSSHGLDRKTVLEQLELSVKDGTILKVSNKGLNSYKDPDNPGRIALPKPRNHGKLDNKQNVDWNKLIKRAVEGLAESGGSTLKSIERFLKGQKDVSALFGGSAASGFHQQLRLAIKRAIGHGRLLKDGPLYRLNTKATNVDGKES
Oligonucleotide	E-score
CACACACG	0.133
CCCTGTGA	-0.217
AACGCCTC	-0.0687
ATATGTTA	-0.16
CATAGCAA	-0.155
AGTCTAAT	0.0321
AATTAATC	-0.0334
AGGTACCA	-0.196
ACATGATA	-0.0368
AATCGATA	-0.0984
GGTTAGAA	-0.207
AGTCGGAG	-0.0353
CAGTACCC	-0.161
ACGACGTA	-0.0176
TCCTCAGA	-0.103
CCCGCGGG	0.398
TAGTGCCA	-0.133
ACCAGATG	-0.191
ACTGTCCG	0.183
ATAAAAAA	-0.00155
ATCTTTGA	-0.0864
AACCCGCC	0.306

Sample 4
Target: RING finger protein unkempt homolog, zinc fingers 1-6, GST-SBP tag (UNK, Homo sapiens, UniProt Q9C0B0, residues 30-357)
Chain of UniProt Q9C0B0 (30-357, looked up): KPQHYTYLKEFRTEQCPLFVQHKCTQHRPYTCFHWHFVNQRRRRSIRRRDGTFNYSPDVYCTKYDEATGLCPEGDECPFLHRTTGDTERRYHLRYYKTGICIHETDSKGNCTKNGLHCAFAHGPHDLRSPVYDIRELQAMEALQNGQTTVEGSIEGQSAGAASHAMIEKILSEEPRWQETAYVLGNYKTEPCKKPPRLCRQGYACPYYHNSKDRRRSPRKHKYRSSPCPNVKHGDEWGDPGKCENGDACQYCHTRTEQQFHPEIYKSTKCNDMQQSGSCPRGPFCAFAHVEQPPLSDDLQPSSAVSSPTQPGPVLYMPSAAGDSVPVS
Method: RNA Bind-n-Seq
Form: RNA
Medium: in vitro
Concentration: not given
Notes: RNA with constant flanks, human-mouse chimeric sites, ends assumed
Relative to: input RNA pool
Reading: higher = stronger binding
Constant ends, left off below: GGGAGUUCUACAGUCCGACGAUC … CAACAGAGGAUUGAGCAUCA
Oligonucleotide	bound/input enrichment [ratio]
GGACCAUAAUCAUGGAGGACAUGAUGGAGCUCCCCAAAGCGCGCGUCAACGCCAGCAUGUUACCACAGUAUAUCGACCGGCCCGUGUGCUUCGUGGGGAAGCUGGAAAAGAUUCAUCCCA	0.103
CGGAGCCCUCCUCUCCCACAGGCCCAAGAUAUAACCCACCAGUGCCUUUUGUCUUCCUGUCAGCUCUGUCAAUCACGGCCCUGCCUUCACGCCCACACCAAGUGCCCAAAGUGGGGAGGG	0.378
UCUGGUCAUACUCGUGCGUAUGGUGUUUGCUUUGUGGACACUUCACUGGGCAAGUUUUUCAUCGGCCAGUUUUCGGAUGACCGCCACUGUUCCAGAUUUAGGACGCUAGUGGCUCACUAU	0.196
GCUCCUCCCCGCUCUGCAGCCUGGGGACACUGGGCUGGGACCAGAAUCCAGCUUUCUUUUAAAACUCUCAGUGUAACUGUAUCCCGUGACAUUUCAUUUUUUUUUUAUAGUGUAUUUUUU	14.1
CAGCCUCAGAGCCCUGACUUCCUGGAUAUUACCAACCCUAAAGCGGUAUUAGAAAAUGCAUUGAGAAACUUCGCCUGUCUGACGACUGGAGAUGUGAUUGCUAUCAACUACAAUGAGAAG	0.519
AGAAAGCAAAACUUGGAACGAUUUAAGAAAGGAGACGUAAGAUUCUUGAUUUGCACAGAUGUAGCUGCUAGAGGGAUUGAUAUCCACGGUGUUCCUUAUGUGAUCAACGUCACCCUGCCU	0.188
ACUCAGAGAUCCACCUCCCAAAGUGCUGGGAGUAAAGGUGUGGCCACUCAAUUCUCCUUCAUAGACAUAUAUUUUUUUUAAUAUGAAUCUUCCUGUUCGUCCAGGGAAGAAAGAUUUGUU	13.5
GCAUAUGGUUAUCGAGGAAAGGACUGUAGAGCGAAUGUAUACCUGCUUCCGACCGGGGAGAUAGUUUAUUUUAUCGCCUCAGUGGUAGUCCUGUUUAAUUAUGAGGAGAGGACUCAGCGA	0.289
GGAAGUACAAUGAUGGAGAUUGAUGGUGACAAAGGCAAACAAGGCGGGCCCACCUACUACAUAGACACCAAUGCCCUGCGUGUUCCGAGGGAGAACAUGGAGGCCAUCUCACCACUCAAG	0.226
AAGCAACGCAAACUUGAAACAAUUCGUUAUCUUGCAGCCUCAGUGUUCACUUGCUUGGCGAUAGCAUUGGGGUUUUAUAGGUUCUGGAAGGAGAACUGACGAUGAUGUCCUGCUGUGUGC	0.102
AAAUCGUGUGUGUCCAAUAUUGAAAGUACUUUAUCUGCACUCCAGUAUGUAAGCAGUAUAGUAGUUUCUUUAGAGAAUAGGUCAGCCAUUGUGAAGUACAAUGCAAGCUUAGUCACUCCA	2.75

Sample 5
Target: Sal-like protein 4, full length isoform B (SALL4, Homo sapiens, UniProt Q9UJQ4-2, residues 1-616)
Method: universal PBM
Form: double-stranded DNA, one strand shown
Medium: in vitro
Concentration: not given
Notes: 8-mer, flanks averaged, mean of replicates
Reading: higher = stronger binding
Oligonucleotide	E-score
ACTGTGAG	-0.0638
ATCCGGAG	-0.0166
CCTGACCC	-0.27
GAAGTATC	0.155
AAACGTGG	-0.0487
GTCCCTTA	-0.0473
GCGCATGA	-0.229
GACCGAAC	-0.158
CCATAGAG	-0.0544
GAGGGACA	-0.215
TAACCACA	0.132
TAAACGTA	0.25
ATTTTGAC	0.228
ATTATTGG	0.283
ATGAAGTC	0.0014
CAATACCC	0.041
CTATCATA	0.275
GCCTCCGA	-0.224
TGGTAAAA	0.209
CGCAGACG	-0.138
GAGGGTAC	-0.244
TCTCTTAA	0.17
ACACGGGA	-0.137
ATCCCACC	-0.273
AAACTATG	0.148

Mixed results
Substance	target	assay	test system	setting	scale	quantity	value
PhoQ, residues 284 288 289 292 302 303 TTSMTC	PhoP, residues 12 14 15 18 19 LWHSL (Escherichia coli, UniProt P23836)	Sort-seq, item: YFP reporter	E. coli	PhoQ-PhoP variant library, together with: 10 µM Mg2+	relative to: high Mg2+ state, higher = stronger signaling	fold induction	9.36

A few entries again (sample 3):
Oligonucleotide	E-score
CATAGCAA	-0.155
AGTCTAAT	0.0321
AATTAATC	-0.0334
AGGTACCA	-0.196
ACATGATA	-0.0368
AATCGATA	-0.0984
GGTTAGAA	-0.207
AGTCGGAG	-0.0353
CAGTACCC	-0.161
ACGACGTA	-0.0176
TCCTCAGA	-0.103
CCCGCGGG	0.398
TAGTGCCA	-0.133
